Measurements from different studies.
A part holds a random share of what one study measured. Changes are numbered by the printed parent chain.

Block 1
Target: Phosphate system positive regulatory protein PHO4, full length, GST-tagged (PHO4, Saccharomyces cerevisiae, UniProt P07270, residues 1-312)
Technique: competition protein-binding microarray
Molecule type: double-stranded DNA, one strand shown
Matrix: in vitro
Tested at: 2 µM
Setting: whole 60-bp probe, lowest competitor level
With: Cbf1 competitor, 0.05 µM
Direction: higher = stronger binding
Constant ends, left off below: … GTCTTGATTCGCTTGACGCTGCTG
Target sequence (chain): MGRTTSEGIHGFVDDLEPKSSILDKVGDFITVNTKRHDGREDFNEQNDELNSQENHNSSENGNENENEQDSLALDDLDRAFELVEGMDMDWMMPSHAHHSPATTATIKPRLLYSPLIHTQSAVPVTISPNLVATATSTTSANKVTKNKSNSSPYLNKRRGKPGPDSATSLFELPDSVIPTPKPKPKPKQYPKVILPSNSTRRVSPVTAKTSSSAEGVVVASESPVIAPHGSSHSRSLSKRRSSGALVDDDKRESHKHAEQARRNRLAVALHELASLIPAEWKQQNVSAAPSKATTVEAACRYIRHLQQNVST
Strand | fluorescence intensity [a.u.]
GAAAGACGGACATACCGCGTGCGGAGAACTTTTTCA | 11100
CTAACGAAGGTTTGTCCAGTGGGTGACAAGCCAAGT | 3250
GATCAAAAAAATACTCACGTGTCCTGGAGTCATAAA | 15200
TTGCTCACTTTCTAATACGTGCAAACCTTTACAAGC | 6140
AACCTGTCCAAATACCACATGCTTTCCATCGAGCCA | 8620
AAGCCTTTGGAACGCCATGTGTAAGGTGCAATGGAC | 8780
CTTTCCCGATCTTGACCTGTGGGTGTAGCACATTTG | 4520
TGCGCAACAACTTTTCACGTGTAATTATGTCTAGAA | 13100
AACCAGAGCCCAATAAACGTGGTCGTTGTCGAGTAG | 13900
CTTTCCCGATCTTGAAAAGTGGGTGTAGCACATTTG | 4060
AAAGCGGTAATTTGCGTAGTGGGTGCAGATATCTAT | 4340
CAACTAAAATGTCCAGACATGATGTTAAGCGGAAGG | 6110
TGATGAGGACACCGACACGTGCAAACATGGTAGTGC | 18800
CTTTCCCGATCTTTTCACGTGTGCTTAGCACATTTG | 15200
CATACCCAACCTTGTCACGGAACTTAAGATATTTGT | 4060
GCCCAGGAGTTCTGGCACGTTGTTTTGAGGCTAAGT | 12800
AGCGTTCAACTAGTCTACTAAAAAGTAAAAGAGTTA | 2830
CGTTGCAGGAGCCCGCCCATGGACGCATTTGAGCAA | 3990

Block 2
Target: Histone acetyltransferase KAT6A, winged helix 1, GST fusion (KAT6A, Homo sapiens, UniProt Q92794, residues 1-85)
Technique: protein binding microarray
Molecule type: double-stranded DNA, one strand shown
Matrix: in vitro
Tested at: not given
Setting: 8-mer, flanks averaged, mean of 2 arrays, mostly near background
Baseline: not given
Direction: higher = stronger binding
Construct (chain): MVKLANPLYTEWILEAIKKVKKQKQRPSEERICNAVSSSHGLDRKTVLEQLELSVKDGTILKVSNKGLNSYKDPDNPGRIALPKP
Strand | E-score
CTCGAGGA | -0.302
CTGGCTCA | -0.0932
TACTGCTA | -0.0374
ATTGATTG | -0.212
GCGTCGCC | 0.343
GAAAAATA | -0.104
ATGGCAAC | 0.0062
CCCGCGGC | 0.462
CTGCGAAC | -0.0668
CTGGCCCA | -0.145
GCATTAGC | 0.101
TGCAGCCA | -0.152

Block 3
Target: RNA binding protein fox-1 homolog 2, RRM domain, GST-SBP tag (RBFOX2, Homo sapiens, UniProt O43251-10, residues 100-194)
Technique: RNA Bind-n-Seq
Molecule type: RNA
Matrix: in vitro
Tested at: 365 nM
Setting: natural RNA segment, single round, ends assumed
Baseline: no-protein control
Direction: higher = stronger binding
Constant ends, left off below: GGGAGUUCUACAGUCCGACGAUC … UGGAAUUCUCGGGUGCCAA
Strand | RBNS enrichment (R)
CUCUUUGGGACCCUGCUUAGAGUCAAGGGUACCAAUGAGAAGGGCUAGGACAAGGAAUGCUUCUUGAUUCCAUAGCUCUGACUAUAAUGACCCAGGAGAGAGGUGCCCCU | 0.437
UUUCAACCAGCGCUGCAAGAAGAGGAUGAGGAAAAUAUAAAAGGAAAAGAGGGAGAUGUUUUGUCCAGACCUACUAGACCCAACAGAAAAGGUUUUUGUAUUAGAAUCUG | 0.555
GACUCCGUCCUUGUCUCCUGUAAUAUACUGACCCUGUGUGCAGAGGCGUUUUUGUUCCCUUUUGUUUUUAUUUUUACCUACAUGUACUAUUUACCUUCUGUGUCCUGGCC | 0.445
UUUAACAAAUGUUAUCAUGAUUAAGAAAAUUUCCAGCACUUUAAUGGCCAAUUAACUGAGAAUGUAAGAAAAUUGAUGCUGUACAAGGCAAAUAAAGCUGUUUAUUAACC | 1.16
UCAUAAAGAUUUUCAAUCAUUCAAUUUCAUUUAUCAACUGAAAUUUUGUUUAGUAUGUGAAUUUUUUUUUGAAAUGUAUAGUAAAUAAGAUGUUGCACUGGUGGCAAUUC | 0.691
GAGAGGUGGGACUGCCAUCUGGGCCUCGGUGGCUUGUUUCCAACCAAAUUAUCUGGGCUUCAGAAGCCAUCCCUUUGCUAUGCUUGACACCAAACUCAGUCACUCCACCU | 0.491
AGCUGACUUUGUUGCCUUAUCUUGAAAAGAAUCUAGAUAGGUGCUUUUAACUGGGGUAUUAACUUUUUUAGAAUGACACAGCUGAACAGUGUUAAUAAUAGUGUGUCAAG | 0.443
UUUAAAACAAACACAUAACAAUCUUCAGUAAAGUUAUUUGAACCUGUGGUUGACAAUUCUGUAUUGACUAAAGGCAAUAUUGUCACCUGUCUCAUUAAAAAUUAGUUUCC | 0.433

Block 4
Target: Interferon regulatory factor 7, full length, phosphomimetic (IRF7, Homo sapiens, UniProt Q92985, residues 1-503, S101K/S471D/S472D/S475D/S476D/S477D/S483D/S484D/S487D)
Technique: protein-binding microarray
Molecule type: double-stranded DNA, one strand shown
Matrix: in vitro
Tested at: 250 nM
Setting: 60-bp whole probe
With: salmon DNA 0.4 mg/ml
Baseline: random background probes
Direction: higher = stronger binding
Constant ends, left off below: GCCTAGCAC … GTCTTGATTCGCTTGACGCTGCTG
Target sequence (chain): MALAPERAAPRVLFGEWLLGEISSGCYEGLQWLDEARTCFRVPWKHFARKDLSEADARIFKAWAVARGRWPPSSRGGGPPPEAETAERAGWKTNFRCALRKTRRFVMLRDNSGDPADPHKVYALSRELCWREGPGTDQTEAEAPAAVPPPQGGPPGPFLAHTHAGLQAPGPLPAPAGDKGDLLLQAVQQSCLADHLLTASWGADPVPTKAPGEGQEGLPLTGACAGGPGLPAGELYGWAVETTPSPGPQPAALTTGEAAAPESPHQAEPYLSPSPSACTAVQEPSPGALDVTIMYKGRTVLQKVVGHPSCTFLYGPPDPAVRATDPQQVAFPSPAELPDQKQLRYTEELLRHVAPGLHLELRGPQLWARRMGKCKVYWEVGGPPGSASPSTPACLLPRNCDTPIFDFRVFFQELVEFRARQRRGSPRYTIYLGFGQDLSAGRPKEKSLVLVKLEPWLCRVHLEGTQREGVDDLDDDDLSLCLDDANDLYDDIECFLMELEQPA
Strand | log fluorescence
TTAGGTATCGACGCTGGGTTAGTGCTA | -0.297 z-score
TAAGATATCAGTATCGATTAGTGCTAG | 1.2 z-score
TGAGGACTGGGTCTCGGTTAGTGCTAG | 0.576 z-score
TTGGAACTGAGACTGGATTAGTGCTAG | -0.271 z-score
GACGGTTTCGACTTTCGGGTCGTGCTA | 11.2 z-score
GACGGTTTCCGTCTCCTGACGTGCTAG | 2.36 z-score
TTAGGTTTCGGGTTTTGGTTAGTGCTA | 9.68 z-score
TCAAGGCTGTGTTTTCACACTGTGCTA | -0.768 z-score
TTTTTTTTTTTTTTTTTGTAGTGCTAG | 0.626 z-score
TTAGGTTCCCTCTTCCTTTAGTGCTAG | 1.28 z-score
TTAGACATCAGTCTCGATTAGTGCTAG | 1.52 z-score
TCAGGTTTCTATATTTGACTGTGCTAG | 3.37 z-score
TGACTTTTGAGAGATGGAAACGTGCTA | 0.0172 z-score
GACGGTATCCTTATCCTGAGGTGCTAG | 0.149 z-score
TTAGGTTTCGACTTTCGCTTAGTGCTA | 11.2 z-score
AAGATTCTAGCCTATAGAAGCGTGCTA | 0.326 z-score
CCCGTTCACCCACGACCCTTGTGCTAG | 0.963 z-score
GACGATATCGGGTATCAAGACGTGCTA | -0.329 z-score

Block 5
Target: CCNA2, cyclin fold, Cln2 fusion (human)
Technique: yeast growth competition, sequencing
Matrix: yeast
Setting: strong parent motif
Baseline: not given
Direction: higher = stronger binding
Starting sequence: CDKN1A docking peptide (human); SKACRRLFGPVDS
Change | normalised enrichment score
G9P | 5.96
D12W | 4.82
A3W | 2.09
C4D | 0.374
A3T | 4.87
L7M | 0.958
D12M | 5.54
D12C | 5
R6E | 4.41
A3C | 5.76
D12E | 5.45
S13A | 5.91
G9R | 4.85

For quick reference, copied from above (block 2):
Strand | E-score
TACTGCTA | -0.0374
ATTGATTG | -0.212
GCGTCGCC | 0.343
GAAAAATA | -0.104
ATGGCAAC | 0.0062
CCCGCGGC | 0.462
CTGCGAAC | -0.0668
CTGGCCCA | -0.145
GCATTAGC | 0.101
TGCAGCCA | -0.152
